Published values gathered from unrelated publications.
Every numbered part comes from another study and shows a few of its results, in no order. Substitutions count along the parent as printed.

Series 1
Target: CCNA2, cyclin fold, Cln2 fusion (human)
Method: yeast growth competition, sequencing
Sample: yeast
Setting: strong parent motif
Baseline: not given
Reading: higher = stronger binding
Measurement: normalised enrichment score
Starting sequence: ORC1 docking peptide (human); PRARKRLELGNLG
PRARKRLELFNLG [G10F]: 4.02
PRAQKRLELGNLG [R4Q]: 2.2
PGARKRLELGNLG [R2G]: 4.52
PRARCRLELGNLG [K5C]: 2.23
PRARKRLELGNVG [L12V]: 5.36
PRARKRLELPNLG [G10P]: 2.65
PRARKRLELGNSG [L12S]: 5.3
PRARKRLELSNLG [G10S]: 4.24

Series 2
Target: Hepatocyte nuclear factor 3-alpha (Foxa1, Mus musculus, UniProt P35582, residues 1-468, full length assumed)
Method: EMSA with sequencing
Molecule type: double-stranded DNA, one strand shown
Sample: in vitro
Concentration: 10 and 20 nM
Setting: whole designed probe, mean of two concentrations, ends assumed
Baseline: negative control set to 0
Reading: higher = stronger binding
Measurement: normalised bound fraction
All sequences stand within: GTGAGCGGTGCCCATTGATGGGGAAC … TTTCACTGGGATCGTGGGGAC
Residues (chain): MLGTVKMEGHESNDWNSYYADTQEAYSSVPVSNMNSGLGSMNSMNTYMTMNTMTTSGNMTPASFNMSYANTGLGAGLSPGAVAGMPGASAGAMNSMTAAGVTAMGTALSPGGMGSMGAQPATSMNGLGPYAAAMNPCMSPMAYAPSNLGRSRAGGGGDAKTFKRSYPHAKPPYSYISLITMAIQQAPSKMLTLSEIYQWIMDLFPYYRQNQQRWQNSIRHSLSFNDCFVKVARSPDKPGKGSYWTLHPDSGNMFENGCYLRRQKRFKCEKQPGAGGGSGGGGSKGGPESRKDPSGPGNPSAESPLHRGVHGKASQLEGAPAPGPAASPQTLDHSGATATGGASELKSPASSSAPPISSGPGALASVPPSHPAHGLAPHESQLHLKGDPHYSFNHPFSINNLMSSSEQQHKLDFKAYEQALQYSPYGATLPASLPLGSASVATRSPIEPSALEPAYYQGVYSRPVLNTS
GCTGTCAGCCTCTTCTCCGTGGTGTTTTCTTGGAGCAAGTCCAAAGCAAAATCCTGATGCAAACAGTAACTATGGTTGTACATTGTTAAGTTGAAATTACTTTTTTGAATAGATAACGTTTACACGATCAAGATTCAGAATGTACCAAAAGTCCCCCAGTTGTCAGTTTTCCTCTCTGGAAATATACAGGAGG: -0.0355 ratio
GTAAAATTAATCCAAAGACACGGAAAGTCCATGAATTTCAGTTCTAACAGAAAATTTTTGAATTAAATTTTCAAAAGGTTGTAACTGACAGAGTAATCTTGTACTAGGTACAAGAGGTAATGAATTCTGAAGTTATGAAGTATTTGTATTCCAAGTGGAAATGCAATTGTTTACCTGAATTTTGGGCCCAGAA: 0.0867 ratio
GAGGCTCCCCTTTACGAATGGGGGCACCCGGGCTGCAGCCACTACTACTTCGCTTGGGATCGGTCCTCCGCCCCAAGATGGCTCCCAGTCGCTGTTTACTCAGCGACTGCAGGGACACCAGGGCGCGGGGCCGGGGAGCGGGCGAAGATCACGGAGCGTACAGATTGGCCCGGGCAGGTGGCCTCTCCGCGTG: 0.331 ratio
ATCTTCCCCCTCTTCCTTGCCCCACCAGCTCACCTTCCCGGGTTATTTGCAGATAGGAAAATAAATAAAGCCGGCATTCGTTAACCCTCTTCTGGCGCAAACTGCTGTTTGCTCTGGATGAATCATGCCTTGTGTGCGACGCCAGGCTCCGGGAGAGCAAAGCACCGTGTCAGGGCCATGATCCGGGGTGGCC: 0.353 ratio
CCAACGTATCAGTATATTCAGCTCCCCTGTTCTTTGTTCTTCATTTTAAACGTTAACTTCCTTGTTCTTTATATCTCCTTGGCCCTAGTCTCAGTAATCTACCCACCAGTTCTAATCAGTAGTTCACATCTGTTCCCCTGGTCACCTGATCCATCCTGAGTCACCCTTGGTCACCTGCTCTGTCCTGAGTCAC: -0.0725 ratio
ATCTTCCCCCTCTTCCTTGCCCCACCAGCTCACCTTCCCGGGTTATTTGCAGATAGGAAAATAAATAAAGCCGGCATTCGTTAACCCTCTTCTGGCGCAAACTGCTGTTTGCTCTGGATGAATCATGGTTATGGCGTCCCGCCAGGCTCCGGGAGAGCAAAGCACCGTGTCAGGGCCATGATCCGGGGTGGCC: 0.356 ratio
TCCACAGTAGAAACGAAGGAGATGACAGATACCCCGGCACCAAAACTGACACCAGGTTTTTGTTGCTTCTTCCACTATATAATGGAGAAGTTCTGTTTACTCTAGTTGTGCAACTACTGTTAACATTGGCTTAAGGAAACCCAAGAAACTGAATCACATCAAAGGTATGTCAGAGGTATGTGAACCAGAGCAA: 0.362 ratio
ATCTTCCCCCTCTTCCTTGCCCCACCAGCTCACCTTCCCGGGTTATTTGCAGATAGGAAAATAAATAAAGCCGGCATTCGTTAACGATGAATCATGGCATACTGCTGTTTGCTCTGGATCTAACATGGTCCTTTGGCGACGCCAGGCTCCGGGAGAGCAAAGCACCGTGTCAGGGCCATGATCCGGGGTGGCC: 0.361 ratio

Series 3
Target: ABI1, truncated, D143A, DHFR fusion (Arabidopsis thaliana)
Method: DHFR PCA, deep sequencing
Sample: yeast
Setting: methotrexate growth selection, single substitutions
Together with: (+)-ABA 0 µM
Baseline: wild-type fitted maximum
Reading: higher = stronger binding
Measurement: relative binding score
Starting sequence: PYL1, truncated, DHFR fusion (Arabidopsis thaliana); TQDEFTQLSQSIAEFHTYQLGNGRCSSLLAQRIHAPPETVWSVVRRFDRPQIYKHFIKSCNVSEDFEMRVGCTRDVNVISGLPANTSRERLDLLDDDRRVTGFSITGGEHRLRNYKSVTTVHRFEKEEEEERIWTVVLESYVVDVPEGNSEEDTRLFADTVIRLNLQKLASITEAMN; partner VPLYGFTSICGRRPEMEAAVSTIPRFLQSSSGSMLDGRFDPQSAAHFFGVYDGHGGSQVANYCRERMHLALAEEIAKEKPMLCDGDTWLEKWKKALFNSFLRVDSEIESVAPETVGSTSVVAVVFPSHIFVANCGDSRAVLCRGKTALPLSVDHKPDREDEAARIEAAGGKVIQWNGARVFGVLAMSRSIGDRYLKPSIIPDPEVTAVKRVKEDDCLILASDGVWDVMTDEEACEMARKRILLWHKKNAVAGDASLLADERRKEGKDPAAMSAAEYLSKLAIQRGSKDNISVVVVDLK
L166W: 6.63%
D153R: 0.686%
I57A: -0.564%
A30T: 9.47%
G102E: -0.119%
S9A: 35.2%
T86V: 41.4%
R90A: -3.88%
V143D: 0.495%
E4F: 13.8%
F56V: -3.99%

Further values, each from its own experiment
PhoQ, residues 284 288 289 292 302 303 TASMAF  fold induction (PhoP, residues 12 14 15 18 19 MHTVL (Escherichia coli, UniProt P23836); Sort-seq, refers to: YFP reporter; E. coli; PhoQ-PhoP variant library, together with: 10 µM Mg2+; baseline: high Mg2+ state, higher = stronger signaling): 8.22

For quick reference, copied from above (series 1):
PGARKRLELGNLG [R2G]: 4.52
PRARCRLELGNLG [K5C]: 2.23
